Experimental data pooled from the literature.
Each numbered part is a random draw from the data of one study; scales do not carry over between parts. Changes are numbered by the printed parent chain.

Series 1 — effect on: binding; technique: phage display NGS; molecule type: peptide; reference: input library; endpoint: minimum log2 enrichment ratio
Target: UDP-N-acetylglucosamine--peptide N-acetylglucosaminyltransferase 110 kDa subunit (OGT, Homo sapiens, UniProt O15294)
Sequence of UniProt O15294 (whole entry, looked up): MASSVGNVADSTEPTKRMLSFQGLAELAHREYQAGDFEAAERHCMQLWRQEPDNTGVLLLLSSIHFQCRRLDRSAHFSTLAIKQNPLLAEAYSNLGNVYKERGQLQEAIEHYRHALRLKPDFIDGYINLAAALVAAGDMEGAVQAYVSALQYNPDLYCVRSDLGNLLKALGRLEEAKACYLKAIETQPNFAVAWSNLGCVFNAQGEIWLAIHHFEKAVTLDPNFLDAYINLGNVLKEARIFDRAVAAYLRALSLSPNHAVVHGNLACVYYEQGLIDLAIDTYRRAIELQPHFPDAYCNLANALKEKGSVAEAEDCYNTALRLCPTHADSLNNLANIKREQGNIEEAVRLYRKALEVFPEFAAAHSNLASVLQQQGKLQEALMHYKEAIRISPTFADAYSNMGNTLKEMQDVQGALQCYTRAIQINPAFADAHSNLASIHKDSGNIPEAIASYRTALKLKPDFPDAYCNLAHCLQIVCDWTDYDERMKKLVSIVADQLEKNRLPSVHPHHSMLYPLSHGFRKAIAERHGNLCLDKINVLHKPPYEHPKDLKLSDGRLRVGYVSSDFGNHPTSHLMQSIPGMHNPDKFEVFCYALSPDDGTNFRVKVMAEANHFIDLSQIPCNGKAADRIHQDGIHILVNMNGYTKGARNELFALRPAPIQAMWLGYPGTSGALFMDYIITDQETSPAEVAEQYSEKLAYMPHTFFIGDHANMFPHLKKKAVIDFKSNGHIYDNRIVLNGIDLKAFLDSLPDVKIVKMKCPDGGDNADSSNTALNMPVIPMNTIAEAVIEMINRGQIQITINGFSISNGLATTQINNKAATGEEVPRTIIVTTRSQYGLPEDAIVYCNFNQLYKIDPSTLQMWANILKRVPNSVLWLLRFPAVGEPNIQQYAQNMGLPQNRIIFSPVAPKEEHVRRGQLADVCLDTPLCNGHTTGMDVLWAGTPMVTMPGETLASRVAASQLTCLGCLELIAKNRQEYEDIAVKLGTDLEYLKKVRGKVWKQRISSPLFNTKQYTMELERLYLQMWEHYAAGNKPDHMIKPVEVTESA
VERWFPPKYQMPIQG: 3.89
SMVHGVHTIEHHHYQ: 2.01
TMYEPMYQIKVIAHG: 4.27

Series 2 — target: CCNB3, cyclin fold, Cln2 fusion (human); technique: yeast growth competition, sequencing; matrix: yeast; setting: strong parent motif; reference: not given; reading: higher = stronger binding; endpoint: normalised enrichment score
Parent: viral docking peptide; KGVKRKLFAEDSS; partner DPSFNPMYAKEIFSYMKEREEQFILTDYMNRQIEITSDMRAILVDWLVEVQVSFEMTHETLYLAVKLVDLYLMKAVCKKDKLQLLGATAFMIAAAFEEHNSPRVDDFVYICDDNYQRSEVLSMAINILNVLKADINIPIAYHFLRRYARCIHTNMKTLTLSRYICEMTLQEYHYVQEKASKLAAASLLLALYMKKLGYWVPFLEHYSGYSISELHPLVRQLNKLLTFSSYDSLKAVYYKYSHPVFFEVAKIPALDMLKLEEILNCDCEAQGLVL
V3K: -0.219
V3A: 1.33
D11L: 1.36
E10F: 1.64

Series 3 — target: inorganic phosphate, free oxyanion; technique: microfluidic competitive inhibition; matrix: in vitro, cell-free expressed; concentration: not given; reading: lower = stronger binding; endpoint: phosphate dissociation constant
Setting: derived from inhibition constants, unchanged parent 615000 nM
Parent: PafA, mature enzyme, eGFP fusion (Elizabethkingia meningoseptica, UniProt Q9KJX5); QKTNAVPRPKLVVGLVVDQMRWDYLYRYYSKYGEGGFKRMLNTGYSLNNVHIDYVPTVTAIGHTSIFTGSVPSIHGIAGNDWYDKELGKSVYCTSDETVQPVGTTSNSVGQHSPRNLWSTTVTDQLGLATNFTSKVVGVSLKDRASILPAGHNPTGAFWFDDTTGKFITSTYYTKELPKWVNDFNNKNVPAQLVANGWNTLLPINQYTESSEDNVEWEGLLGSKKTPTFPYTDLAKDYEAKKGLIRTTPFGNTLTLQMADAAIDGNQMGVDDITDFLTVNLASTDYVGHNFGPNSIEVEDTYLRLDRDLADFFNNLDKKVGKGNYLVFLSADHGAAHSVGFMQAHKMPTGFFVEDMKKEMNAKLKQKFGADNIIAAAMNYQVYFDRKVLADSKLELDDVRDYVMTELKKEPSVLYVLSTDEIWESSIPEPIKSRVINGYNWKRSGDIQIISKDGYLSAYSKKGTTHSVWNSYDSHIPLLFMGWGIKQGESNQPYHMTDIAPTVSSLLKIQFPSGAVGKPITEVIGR
A262G: 543 µM
T121V: 552 µM
I74G: 160 µM

Single results of other studies — technique: cross-linking MS
WNT10B (Homo sapiens, UniProt O00744) — cross-linked residues (TAF1A (Homo sapiens, UniProt Q15573); cell fractions; added: DMTMM): E312 to K322
HAT1 (Homo sapiens, UniProt O14929) — cross-linked residues (MCM3 (Homo sapiens, UniProt P25205); cell fractions; added: DSSO): K366 to K270
TRAPPC4 (Homo sapiens, UniProt Q9Y296) — cross-linked residues (TRAPPC1 (Homo sapiens, UniProt Q9Y5R8); cell fractions; added: DSSO): K41 to K51
SRSF2 (Homo sapiens, UniProt Q01130) — interaction screen (SRSF7 (Homo sapiens, UniProt Q16629); hits only): cross-linked

For quick reference, copied from above (single results of other studies):
WNT10B (Homo sapiens, UniProt O00744) — cross-linked residues (TAF1A (Homo sapiens, UniProt Q15573); cell fractions; added: DMTMM): E312 to K322
